Experimental data of several laboratories.
Each numbered part is a random draw from the data of one study; scales do not carry over between parts.

Sample 1
Target: Centromere-binding protein 1, full length, His-tagged (CBF1, Saccharomyces cerevisiae, UniProt P17106, residues 1-351)
Sequence of UniProt P17106 (whole entry, looked up): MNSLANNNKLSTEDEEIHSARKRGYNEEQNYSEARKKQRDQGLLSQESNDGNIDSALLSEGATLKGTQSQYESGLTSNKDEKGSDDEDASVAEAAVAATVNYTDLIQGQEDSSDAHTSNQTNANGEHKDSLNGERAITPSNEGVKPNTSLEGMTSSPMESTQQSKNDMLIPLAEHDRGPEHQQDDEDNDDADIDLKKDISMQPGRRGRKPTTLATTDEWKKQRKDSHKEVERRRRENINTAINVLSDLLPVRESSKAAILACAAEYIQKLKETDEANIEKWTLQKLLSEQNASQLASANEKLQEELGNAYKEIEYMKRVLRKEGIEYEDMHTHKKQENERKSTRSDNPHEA
Method: competition protein-binding microarray
Form: double-stranded DNA, one strand shown
Sample: in vitro
Concentration: 2 µM
Setting: whole 60-bp probe, lowest competitor level
Together with: Pho4 competitor, 0.05 µM
Direction: higher = stronger binding
Sequence	fluorescence intensity
CGTCCTAGTGATTGCAAAGTGGGTGCCATGAGGAAGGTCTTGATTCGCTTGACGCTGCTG	75.1 a.u.
CGGGGTTAAGTTTTACACGTGTTTTGCTTGCAGCAGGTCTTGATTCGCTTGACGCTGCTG	1030 a.u.
TTGAACGACAAGACTCACGTGGTCGAGCTTCTACCAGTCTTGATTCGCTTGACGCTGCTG	1940 a.u.
CGGGGTTAAGTTTTTCACGTGCGCTGCTTGCAGCAGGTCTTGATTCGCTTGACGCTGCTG	652 a.u.
CTCCCACCAGAACGTCACCTGCTCTCTTAATCAATGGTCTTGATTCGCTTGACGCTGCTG	337 a.u.
TGAGTTGATAGATCGCACGCTCTCGCCGATATAAGCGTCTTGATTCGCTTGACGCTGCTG	57.8 a.u.

Sample 2
Target: RNA binding protein fox-1 homolog 2, RRM domain, GST-SBP tag (RBFOX2, Homo sapiens, UniProt O43251-10, residues 100-194)
Method: RNA Bind-n-Seq
Form: RNA
Sample: in vitro
Concentration: 365 nM
Setting: natural RNA segment, single round, ends assumed
Reference: no-protein control
Direction: higher = stronger binding
Sequence	RBNS enrichment (R)
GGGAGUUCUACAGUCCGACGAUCGUACUUAAUAUAAAAAUCAAUGUCUUUAGAUAAAUACUUUCAUAGUUCUAAUUUGGGUUAAUAUUUUUAAAUGUAUUGUUUACUUUUGUAAUUAUAUACACAACAAAUAUUGGAAUUCUCGGGUGCCAA	0.553
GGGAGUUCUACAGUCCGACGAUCUUUCCUGUUUUUUCUGUUGCUGUGGAACUUAAAGAAUGUGAAAGCUGUCAAAGGGUGUUUUCGGAAUCACUUUUGUGUUUCGUAUAGUAAAACAAUGUGAUUCAUUCCAAUGGAAUUCUCGGGUGCCAA	0.46
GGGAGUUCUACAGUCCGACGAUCCUGUAAAUACUUUUUUGGAAAAUAGAAAUUUUUAUUGCUUUAAAGUUUUGGAUAUGGGUGGUUUUCUUUUCCGGGUUUGGUGGAAAGUAAUUUGAGAACUUUAAGGUUGUUGGAAUUCUCGGGUGCCAA	1.12
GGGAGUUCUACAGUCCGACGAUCCUUUUGCCUUGACAGGUCUCUCCUUGGGAUUUGCUCCUCCAGAACCUGAAUUGGAGAGCUUGACCUUUUGCUUGUUAUUUUGCAGUUUGAUUUUGGGCCUAAAGAUGCCAUGGAAUUCUCGGGUGCCAA	2.27
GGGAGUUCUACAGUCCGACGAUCCACUUCUCCUUUACGCUGUGUAGAGAAUGCUCUGCAGUUUAGGCAAUAAAAAUAAAUUGUCUCACUACCUUGGCUCAUCUCUUUGGCCUAGAUUCUCCUGGGAUUUACUUUGGAAUUCUCGGGUGCCAA	0.366
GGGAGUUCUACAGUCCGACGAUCGUAUAACUUUCUUUUUAAACUGUAAGUAAAGGGUCUUGCAGCUUUGUGCUUGUGUUAUCUUAGCAUUUAUCUUCAAACCAGCAUCUCACUAUUUAUUGACAGUGGUGUGUUGGAAUUCUCGGGUGCCAA	0.499

Sample 3
Target: Histone acetyltransferase KAT6A, both winged helices, GST fusion (KAT6A, Homo sapiens, UniProt Q92794, residues 1-181)
Method: protein binding microarray
Form: double-stranded DNA, one strand shown
Sample: in vitro
Concentration: not given
Setting: 8-mer, flanks averaged, mean of 2 arrays, mostly near background
Reference: not given
Direction: higher = stronger binding
Construct (chain): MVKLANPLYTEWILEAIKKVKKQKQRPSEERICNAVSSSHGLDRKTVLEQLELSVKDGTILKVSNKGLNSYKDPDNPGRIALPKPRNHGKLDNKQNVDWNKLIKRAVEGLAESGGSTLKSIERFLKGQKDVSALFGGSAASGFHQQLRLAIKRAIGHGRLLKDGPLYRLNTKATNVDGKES
Sequence	E-score
ACCCACTC	-0.109
ACAAACAG	-0.0892
AATAAGCG	0.0663
AAAGCGCA	0.245
AAGAGCTT	-0.0497
CGCTGGAG	-0.0243

Mixed results
Substance	target	test	system	setting	scale	measurement	result
PhoQ, residues 284 288 289 292 302 303 DDMDFR	PhoP, residues 12 14 15 18 19 LHHVQ (Escherichia coli, UniProt P23836)	Sort-seq, refers to: YFP reporter	E. coli	PhoQ-PhoP variant library, together with: 10 µM Mg2+	reference: high Mg2+ state, higher = stronger signaling	fold induction	0.82

A few entries again (sample 1):
Sequence	fluorescence intensity
TGAGTTGATAGATCGCACGCTCTCGCCGATATAAGCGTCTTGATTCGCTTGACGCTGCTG	57.8 a.u.
